Measurements pooled from the literature.
A part holds a random share of what one study measured. Changes are numbered by the printed parent chain.

Set 1
Target: Sal-like protein 4, full length isoform B (SALL4, Homo sapiens, UniProt Q9UJQ4-2, residues 1-616)
Method: universal PBM
Form: double-stranded DNA, one strand shown
Medium: in vitro
Tested at: not given
Setting: 8-mer, flanks averaged, mean of replicates
Reading: higher = stronger binding
Residues (chain): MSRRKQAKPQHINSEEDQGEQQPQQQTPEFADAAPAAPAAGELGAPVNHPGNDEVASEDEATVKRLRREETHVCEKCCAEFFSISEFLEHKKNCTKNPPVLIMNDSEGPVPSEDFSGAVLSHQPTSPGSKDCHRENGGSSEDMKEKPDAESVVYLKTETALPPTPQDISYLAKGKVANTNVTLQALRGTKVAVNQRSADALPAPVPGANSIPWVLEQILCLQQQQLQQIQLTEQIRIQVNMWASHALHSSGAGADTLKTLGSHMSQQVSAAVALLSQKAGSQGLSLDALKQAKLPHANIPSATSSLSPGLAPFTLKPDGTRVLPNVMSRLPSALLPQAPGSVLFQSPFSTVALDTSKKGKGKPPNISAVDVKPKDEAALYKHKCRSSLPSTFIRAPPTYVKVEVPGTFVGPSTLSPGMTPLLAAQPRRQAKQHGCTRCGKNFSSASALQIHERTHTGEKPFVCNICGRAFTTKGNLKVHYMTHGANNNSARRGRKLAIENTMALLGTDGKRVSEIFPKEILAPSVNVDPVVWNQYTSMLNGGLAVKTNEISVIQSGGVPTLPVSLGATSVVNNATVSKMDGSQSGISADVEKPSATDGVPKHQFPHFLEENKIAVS
Strand | E-score
AAGCCGAA | -0.0217
GCATGACA | 0.04
ACGAGGGC | -0.336
CGGCTAGC | -0.206
GCAGTGCC | -0.343
GAGCCACA | -0.106
GCCGAGAA | -0.0748
AGCTACAA | 0.0272
CTACGGTA | -0.11
CTCACCCC | -0.252
TGCTGCCA | -0.0904
CTATGCCC | -0.0766
CGGCGGTC | -0.356
AATTCTAG | 0.0993
CGTTTACA | 0.132
CCCATTTC | -0.0377
CCTCAAAA | 0.0764
CAGTCCAG | -0.303
GTAATTTA | 0.309
TCGCCACA | -0.0283
AAGTACGT | 0.128
CTTTTGTA | 0.217
TAGGGAAA | 0.107
AACCATTA | 0.261
TAAAACGA | 0.0336

Set 2
Target: CCNB3, cyclin fold, Cln2 fusion (human)
Method: yeast growth competition, sequencing
Medium: yeast
Setting: weak parent motif
Baseline: not given
Reading: higher = stronger binding
Starting sequence: PKMYT1 docking peptide (human); SFEPRNLLSLFED; partner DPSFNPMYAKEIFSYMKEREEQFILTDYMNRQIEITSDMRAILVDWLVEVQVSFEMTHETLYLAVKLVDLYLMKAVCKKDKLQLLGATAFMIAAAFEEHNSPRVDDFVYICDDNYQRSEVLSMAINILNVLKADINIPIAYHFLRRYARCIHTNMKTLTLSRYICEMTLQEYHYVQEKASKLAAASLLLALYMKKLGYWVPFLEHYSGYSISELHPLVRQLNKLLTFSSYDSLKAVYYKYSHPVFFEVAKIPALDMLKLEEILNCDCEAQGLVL
Change | normalised enrichment score
F11H | 0.427
L10V | 0.0102
L8K | 0.736
R5D | 0.438
N6G | 0.516
E12P | 0.395
N6R | 0.732
N6Q | 0.782
P4W | 1.28
F11Y | 0.785
P4C | 0.505
F2W | 0.319
P4E | 0.363
S9C | 0.51
L8N | 0.544
E3F | 0.264
L10E | 1.29

Set 3
Target: ABI1, truncated, D143A, DHFR fusion (Arabidopsis thaliana)
Method: DHFR PCA, deep sequencing
Medium: yeast
Setting: methotrexate growth selection, single substitutions
Added: (+)-ABA 0.0091 µM
Baseline: wild-type fitted maximum
Reading: higher = stronger binding
Starting sequence: PYL1, truncated, DHFR fusion (Arabidopsis thaliana); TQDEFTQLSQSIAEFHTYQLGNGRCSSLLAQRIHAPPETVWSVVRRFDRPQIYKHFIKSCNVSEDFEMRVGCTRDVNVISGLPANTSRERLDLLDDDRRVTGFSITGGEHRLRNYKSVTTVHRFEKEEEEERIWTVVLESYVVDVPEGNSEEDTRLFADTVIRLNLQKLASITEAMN; partner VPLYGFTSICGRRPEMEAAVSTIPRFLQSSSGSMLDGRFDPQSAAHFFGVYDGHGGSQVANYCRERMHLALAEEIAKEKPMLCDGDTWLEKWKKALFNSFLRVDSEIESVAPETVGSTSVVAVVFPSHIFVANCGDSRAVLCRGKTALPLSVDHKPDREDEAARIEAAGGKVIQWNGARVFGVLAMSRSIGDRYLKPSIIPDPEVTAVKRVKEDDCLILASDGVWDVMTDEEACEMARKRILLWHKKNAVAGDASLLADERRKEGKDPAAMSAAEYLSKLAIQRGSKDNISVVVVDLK
Change | relative binding score [%]
S87A | 4.91
V78M | 70.8
V78Y | 102
R123C | 3.01
L112A | 24.7
G107W | -2.98
V118G | -2.74
L112G | -4.68
G107Y | -5.31
E128C | 32.2
Q19I | 4.9
R74N | -0.318
E89N | -13.5
F157H | 1.33
Q31V | 1.31
Y115A | 5.99

Set 4
Target: Interferon regulatory factor 7, full length, phosphomimetic (IRF7, Homo sapiens, UniProt Q92985, residues 1-503, S101K/S471D/S472D/S475D/S476D/S477D/S483D/S484D/S487D)
Method: protein-binding microarray
Form: double-stranded DNA, one strand shown
Medium: in vitro
Tested at: 250 nM
Setting: 60-bp whole probe
Added: salmon DNA 0.4 mg/ml
Baseline: random background probes
Reading: higher = stronger binding
Shared flanks, not repeated: GCCTAGCAC … GTCTTGATTCGCTTGACGCTGCTG
Target sequence (chain): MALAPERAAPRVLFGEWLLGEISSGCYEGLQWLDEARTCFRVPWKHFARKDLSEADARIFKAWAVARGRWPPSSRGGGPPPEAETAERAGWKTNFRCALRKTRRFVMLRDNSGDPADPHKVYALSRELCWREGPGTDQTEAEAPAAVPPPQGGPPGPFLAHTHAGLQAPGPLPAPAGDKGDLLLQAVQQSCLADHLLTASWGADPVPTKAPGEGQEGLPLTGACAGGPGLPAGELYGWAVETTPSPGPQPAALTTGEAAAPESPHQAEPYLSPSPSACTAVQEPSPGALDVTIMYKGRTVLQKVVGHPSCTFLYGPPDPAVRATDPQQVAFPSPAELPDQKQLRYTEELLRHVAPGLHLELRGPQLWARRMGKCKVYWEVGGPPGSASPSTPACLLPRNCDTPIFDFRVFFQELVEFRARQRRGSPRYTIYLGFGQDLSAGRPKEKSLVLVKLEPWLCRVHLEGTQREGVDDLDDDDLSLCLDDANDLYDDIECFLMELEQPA
Strand | log fluorescence [z-score]
GACGGACGGGGTATCGGGACGTGCTAG | -0.533
TTAGATATCGGGTTTCGAGTAGTGCTA | 3.36
GACGGGCTGGGGTTTCGGGACGTGCTA | 0.396
GACGGTCTAGGTCTCGGGACGTGCTAG | -0.147
GACGATTTCCGGTTTCGAGACGTGCTA | 6.31
GAGGGTATCGGGACTGGGGACGTGCTA | -0.4
TCAATAATGGATATATAACTGTGCTAG | -0.111
GACGATTTCAGTCTGGAGACGTGCTAG | -0.231
GACGGTTTCCTACTGCTGACGTGCTAG | 1.55
AGATGGTCCTCTCTCTATTCGTGCTAG | 0.0555
ATAAACTTAGTTTTCAATTTGTGCTAG | 1.35
CAAGTTTCTCCTTTGTAAATGTGCTAG | 3.54
TCGTTTCCCAAGTTTATACCTGTGCTA | 5.71
TCACAACTCTGTTTTCGACTGTGCTAG | 0.536
TCCTGTATGGATGTGTTTTAGTGCTAG | -0.11
TTAGGTTTCGACTTTCGGTGAGTGCTA | 10.5
AACGATTTCAGTTCCGAGACGTGCTAG | 0.672
TTAGGACTGGACACTGGGATAGTGCTA | -0.507
TGCCTTTTGCTTTACTGATGGTGCTAG | 0.592
GACGGTTACCTACTGCTGACGTGCTAG | -0.253
CTGCAGGTAGCAGAGACTTGGTGCTAG | -1.15
TTAGATCTCAGTCTCAATTAGTGCTAG | 0.325
CTCCTAATAAATATGAGACTGTGCTAG | 0.54
TTCGGTATCCTTCTCCTTTAGTGCTAG | 0.306
GACGAACTGGAGTATCGAGACGTGCTA | -0.467

Set 5
Target: UBE2S UBC core domain (UniProt Q16763)
Method: yeast two-hybrid
Medium: yeast
Setting: mostly zero background
Baseline: not given
Reading: higher = stronger interaction
B1: TRIM28 RING domain (UniProt Q13263); chain GAEALELLEHCGVCRERLRPEREPRLLPCLHSACSACLGPAAPAAANSSGDGGAAGDGTVVDCPVCKQQCFSKDIVE
B2: RNF130 RING domain (UniProt Q86XS8); chain DKETDPDFDHCAVCIESYKQNDVVRILPCKHVFHKSCVDPWLSEHCTCPMCKLNILKALGIV
Sequence | lacZ reporter activity
GSEEEEIPFRCFICRQAFQNPVVTKCRHYFCESCALEHFRATPRCYICDQPTGGIFNPA (RNF113B RING domain (UniProt Q8IZP6)) | 0
KITELNPHLMCALCGGYFIDATTIVECLHSFCKTCIVRYLETNKYCPMCDVQVHKTRPLL (PCGF2 RING domain (UniProt P35227)) | 0
B1 (TRIM28 RING domain) | 0
PLRRLQEEKLCKICMDRHIAVVFIPCGHLVTCKQCAEAVDRCPMCSAVIDFKQRVF (BIRC8 RING domain (UniProt Q96P09)) | 0
EIKDYKARLTCPCCNMRKKDAVLTKCFHVFCFECVKTRYDTRQRKCPKCNAAFGANDFHR (RNF20 RING domain (UniProt Q5VTR2)) | 0
EDVLSKDAGECAICLEELQQGDTIARLPCLCIYHKGCIDEWFEVNRSCPEHPSD (ZNRF2 RING domain (UniProt Q8NHG8)) | 0
B2 (RNF130 RING domain) | 0

Set 6
Target: RNA binding protein fox-1 homolog 2, RRM domain, GST-SBP tag (RBFOX2, Homo sapiens, UniProt O43251-10, residues 100-194)
Method: RNA Bind-n-Seq
Form: RNA
Medium: in vitro
Tested at: 365 nM
Setting: natural RNA segment, single round, ends assumed
Baseline: no-protein control
Reading: higher = stronger binding
Shared flanks, not repeated: GGGAGUUCUACAGUCCGACGAUC … UGGAAUUCUCGGGUGCCAA
Residues (chain): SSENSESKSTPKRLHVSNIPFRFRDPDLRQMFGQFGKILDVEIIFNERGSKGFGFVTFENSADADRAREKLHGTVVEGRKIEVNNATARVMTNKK
Strand | RBNS enrichment (R)
AGGAGAUCAGCUCCAACUAUGGUGGGGUGAGUUUUUCCUGACUUGGAGGCUUGCCAGAGAAGGUGGAGAAUGAAGUAGAACUCAGCUUCCCUCUCAGAGCCUGUGCCCGA | 0.315
GGACUAUUAAAGAAUGUUUUGGAAUAAACUGUCUUUUUCCUCAAUGAAUGGGAUGUCUAAUGUAUUUCAAAAUCACCCAAAACUUUUGGCAAAUAAAAGCAUUUAAAAAG | 0.42
UGGGCACCUCCUCCAUGGCUCUCAGGGGCCUUUCAUUUCUGUGGGAGGGGCAGAGAGGUAGGUGGCACAGAAGAUGGGGCUUUAUGCUUGUAAAUAUUGAUAGCACUGGC | 0.612
AAAGUUCCAUUACAGCUUACUGUGAAAGAAUUGACAAGACUGGCCUCAGACAAGCUAAUCAUGGUGCGACUCUCUCCCUUCCUCAUCCACCUCUUUGGGGACAAGAGGAU | 0.245
AACAAUUACAGAAACAGUCAAGUGUUUUCCAAUGUGGUUGUCCGGUUUCUAUGGCCUUGCUGUGUACUUUCCCUCUUUUUGACAGUAAACUUCUGCCUAUGGCUUACAGU | 0.369
UAUGUGGUUCGUGGCCUUCUUCUCACCCAUUGGGAAAACCAAACAGCCUCACACUCUGUCCCCAUCGCUCAUUGGCUUAACUCAAGUGAGACCCCAACUGGGCCUUUGCG | 0.368
CCCCAGGGAUCCCCCAGCUCCCCCAGCCCCUGGCUUCCUGACCCUGCGCCUCACCCUCAGACUGGUGACCAGGCUUCUGAAAGCCAUUCUGGAUCAGUUGGCUUUUUUUU | 0.288
ACGUUUCUACCCUUCAAUUAGCUGCACUGUUUUCUAAUGUGCUGUAGAGUUUGGAAAUAAUUUAUGCAAGUGUUUGGUUCCCAUGUUUACAAUUUUUACAGCUUUCCUAG | 2.91
AAAAUCAUAAACCAUGGCUACUCUUGGGAACCACCCGGCCAUGUGGUCGCCAAGUAGAGCAAGCCCCCUUUCUCUUCCCAAUCACGUGGCUGAGUGUGGAUGACUUUUAU | 0.361
AAAAAAAAUCAAAUGCAGUGACUAUUUUAUAUGGACAUGUGUCUUGAUUAUAUCUAUUAAGUGUGCAUUUAUAGUAUCUCCUAUGGAUCAAUUACAGAGCACAAUGACUG | 0.335
CGACUCUCCUGCCAGUGUCUUUCAGGAUGUCAACGGGUGGUACGAUUCUGGCAUUUGUUUCUCGCUCACCGUGUGUGGAACACUCAUUCCAUGUAGAGGGUGACGAACUC | 0.392
GGGCUCAGCCUCUCUGCCCACAGAGUGCCCCCACGUGGAACAUUCUGGAGCUGGCCAUCCCAAAUUCAAUCAGUCCAUAGAGACGAACAGAAUGAGACCUUCCGGCCCAA | 0.149
